Experimental data collected from several papers.
Compare with care: the assays were run in different laboratories. Several values in a cell are separate wells, animals, samples, runs or records. ± gives the spread as reported. ≈ marks a conversion by molar mass, not a printed value.

Structure (SMILES) | assay | system | conditions | scale | quantity | result
O=S(=O)(O)c1cc(O)c(O)c(S(=O)(=O)O)c1 | UV-vis spectroscopy | 1 M H2SO4 in water | pH 0, 0 wt %, no hydrotrope | – | aqueous solubility | 530 ± 10 mM (≈ 143 mg/mL)
CN(C(=O)C(C)(C)c1cc(C(F)(F)F)cc(C(F)(F)F)c1)c1cnc(N2CC(CO)NCC2CO)cc1-c1ccc(F)cc1CO (centres unmarked) | – | healthy male human | oral, 120 mg, up to 480 h cumulative | baseline: dose | amount excreted in faeces | 1.71% and ~2%
C=CC(=O)Nc1cc(Nc2nccc(-c3c[nH]c4ccccc34)n2)c(OC)cc1N(C)CCN(C)C | storage stability | human plasma samples | 30 d, -80 °C, HQC level | baseline: nominal concentration | percentage recovery | 12.2%
CNC(=O)c1ccc([C@H]2[C@@H](F)[C@@H](F)C[C@@H](F)[C@H]2F)cc1 | liver microsome stability | human liver microsomes | 1 µM, without NADPH | – | hepatic clearance | 3.9 mL/min/kg
C[C@](C(=O)NC1CCC(F)(F)CC1)(c1cncnc1)N(C(=O)[C@H](F)Cl)c1ccc(OC(F)(F)F)cc1 | – | human liver microsomes | concentration not given, pH 7.4 | – | CLint | 107 µL/min/mg
CC(=O)Nc1ccc(C2CCCCC2)cc1 | liver microsome stability | rat liver microsomes | 1 µM | – | hepatic clearance | 53 mL/min/kg
COc1cccc(OC)c1-c1cc(C(=O)NC2(C(=O)O)C3CC4CC(C3)CC2C4)nn1-c1ccc(C(=O)N(C)CCOCCN(C)C(=O)[C@H](CCCCNC(=O)[C@H](CC(C)C)NC(=O)C2OC2C(=O)O)NC(=O)CN2CCN(CC(=O)[O-])CCN(CC(=O)[O-])CCN(CC(=O)[O-])CC2)cc1C(C)C.[177Lu+3] (mixture of isomers) | – | mouse, HT-29 xenograft | 72 h post injection, biodistribution | baseline: tumour over kidney uptake | tumour-to-kidney ratio | 0.49
COC1C=COC2(C)Oc3c(C)c(O)c4c(c3C2=O)C2=NC3(CCN(CC(C)C)CC3)NC2=C(NC(=O)C(C)=CC=CC(C)C(O)C(C)C(O)C(C)C(OC(=O)c2cncnc2)C1C)C4=O (centres unmarked) | – | CD-1 mouse female, plasma | oral, 10 mg/kg | – | fAUC/MIC ratio | 96.4
O=C(NS(=O)(=O)c1cccs1)c1cc2ccccc2n1Cc1ccc(Br)c2ccccc12 | – | Sprague-Dawley rat, male | oral, dose not given, 8 h | – | plasma concentration | 119 ng/mL
COc1ccc(CCC(C)N2CCc3cc(O[11CH3])c(OC)cc3C2)cc1 (racemic) | – | brain homogenate | injection, 30 min | baseline: radioactivity | parent compound fraction | 96.6 ± 0.9%
CCc1cnc(NC(=O)c2cc(S(=O)(=O)N3CCOCC3)ccc2N(C)C2CCCC2)s1 | – | mouse, blood | 10 mg/kg, 3 doses | – | Monocytes absolute count | 886 µL⁻¹
O=C(NC1CCOCC1)c1ccc(C2CCCCC2)cc1 | liver microsome stability | mouse liver microsomes | 1 µM | – | hepatic clearance | 83 mL/min/kg
O=C(Nc1cc(-c2ccnc3[nH]ccc23)c(Cl)cn1)[C@H]1CCC[C@@H](NC(=O)C(F)(F)F)C1 | – | human liver microsomes | – | – | hepatic clearance | 12 mL/min/kg
O=C(CC1CCOCC1)Nc1ccc([C@H]2[C@@H](F)[C@@H](F)C[C@@H](F)[C@H]2F)cc1 | hepatocyte stability | cryopreserved rat hepatocytes | 1 µM | – | hepatic clearance | 22 mL/min/kg
Cc1cc(-c2ccc(C(=O)[C@@H]3CCCC[C@H]3C(=O)Nc3cnn4c3C(=O)NCC4)cc2)[nH]n1 | – | human, urine | oral, 200 mg, 0-6 h | baseline: dose | radioactivity recovery per interval | 1.77% and 2.75% and 1.75% and 2.03% and 1.3% and 2.88%
F[C@@H]1[C@H](c2ccc(-c3ccc(N4CCCC4)nc3)cc2)[C@H](F)[C@H](F)C[C@@H]1F | liver microsome stability | cynomolgus liver microsomes | 1 µM | – | hepatic clearance | 32 mL/min/kg
COc1ccc2c(c1)CN(C(=O)CCN1CCC(Cc3ccccc3)CC1)CCS2 | – | human plasma | 7500 ng/mL | – | fu | 0.071

Repeated from above:
Structure (SMILES) | assay | system | conditions | scale | quantity | result
C=CC(=O)Nc1cc(Nc2nccc(-c3c[nH]c4ccccc34)n2)c(OC)cc1N(C)CCN(C)C | storage stability | human plasma samples | 30 d, -80 °C, HQC level | baseline: nominal concentration | percentage recovery | 12.2%
CNC(=O)c1ccc([C@H]2[C@@H](F)[C@@H](F)C[C@@H](F)[C@H]2F)cc1 | liver microsome stability | human liver microsomes | 1 µM, without NADPH | – | hepatic clearance | 3.9 mL/min/kg
